Results of several laboratories.
Numbered parts are unrelated; each lists some results of a single study. Changes are numbered by the printed parent chain.

Set 1 — technique: DHFR PCA, deep sequencing; medium: yeast; together with: (+)-ABA 200 µM; reference: wild-type fitted maximum; direction: higher = stronger binding; endpoint: relative binding score
Target: ABI1, truncated, D143A, DHFR fusion (Arabidopsis thaliana)
Notes: methotrexate growth selection, single substitutions
Starting sequence: PYL1, truncated, DHFR fusion (Arabidopsis thaliana); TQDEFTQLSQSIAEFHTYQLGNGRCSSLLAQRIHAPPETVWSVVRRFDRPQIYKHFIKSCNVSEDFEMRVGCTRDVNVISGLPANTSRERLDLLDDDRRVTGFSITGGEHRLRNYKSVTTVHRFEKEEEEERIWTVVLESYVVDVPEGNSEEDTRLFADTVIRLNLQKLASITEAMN; partner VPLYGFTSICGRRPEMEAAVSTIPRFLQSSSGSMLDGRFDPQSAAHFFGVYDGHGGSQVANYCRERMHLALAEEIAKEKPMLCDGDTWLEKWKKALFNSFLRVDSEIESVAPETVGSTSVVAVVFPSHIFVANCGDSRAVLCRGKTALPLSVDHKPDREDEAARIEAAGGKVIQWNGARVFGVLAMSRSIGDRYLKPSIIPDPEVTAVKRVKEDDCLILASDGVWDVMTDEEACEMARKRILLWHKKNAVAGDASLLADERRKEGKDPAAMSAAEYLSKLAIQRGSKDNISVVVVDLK
L138K: 13.1%
E131P: 104%
R32D: 84.3%
T39Y: 92.7%
L112K: -9.68%
Q31K: 93.2%
R46L: 79.3%
L169M: 56.6%
F47E: -0.252%
T135Q: 0.436%
T160G: 71.6%
W41K: -36.3%
Y53G: 34.8%
R69S: 98.8%
R88D: 70.6%

Set 2 — target: CCNB3, cyclin fold, Cln2 fusion (human); technique: yeast growth competition, sequencing; medium: yeast; notes: weak parent motif; reference: not given; direction: higher = stronger binding; endpoint: normalised enrichment score
Starting sequence: PKN2 docking peptide (human); VSAVQKLDFSDTM; partner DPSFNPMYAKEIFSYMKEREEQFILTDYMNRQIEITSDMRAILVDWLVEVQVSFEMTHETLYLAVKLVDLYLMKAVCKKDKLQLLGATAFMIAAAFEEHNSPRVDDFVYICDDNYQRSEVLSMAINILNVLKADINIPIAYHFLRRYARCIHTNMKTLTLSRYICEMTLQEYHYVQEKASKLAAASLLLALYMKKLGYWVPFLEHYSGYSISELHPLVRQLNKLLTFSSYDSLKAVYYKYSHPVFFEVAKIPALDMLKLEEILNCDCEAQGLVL
S10Y: 0.397
A3Y: 0.41
M13C: -0.0162
F9M: -0.0197
S10T: 0.53
A3K: -0.0833
K6A: 0.116
T12G: 0.579
F9T: -0.232
M13D: -0.106
S2K: -0.164
L7W: 0.341
S10R: 0.152
T12M: 0.0556
D11Y: 0.109
S2T: 0.241
V4F: 0.427
T12K: 0.187
D8A: 0.456
V4C: -0.138
M13S: 0.528
S10C: 0.112
T12L: 0.572
V1N: 0.347
S10Q: -0.227

Set 3 — technique: RNA Bind-n-Seq; molecule type: RNA; medium: in vitro; concentration: 365 nM; reference: no-protein control; direction: higher = stronger binding; endpoint: RBNS enrichment (R)
Target: RNA binding protein fox-1 homolog 2, RRM domain, GST-SBP tag (RBFOX2, Homo sapiens, UniProt O43251-10, residues 100-194)
Notes: natural RNA segment, single round, ends assumed
Constant ends, left off below: GGGAGUUCUACAGUCCGACGAUC … UGGAAUUCUCGGGUGCCAA
Residues (chain): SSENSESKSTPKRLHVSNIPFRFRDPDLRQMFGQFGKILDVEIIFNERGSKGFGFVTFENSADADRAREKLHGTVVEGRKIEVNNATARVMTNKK
GUUUGUUGGACUUAAACGACGAUUUGCUGCUGUGAACCCAGCAGGGUCGCCUCCCUCUGCAUCGGCCAAAUUGGGGAGGGCAUGGAAGAUCCAGCGGAAAGUUGAAAAUA: 3.17
AAAUCAUGGACAGUAAAUGGUGACAGAUGUCUGAAGGGGUCUCAAAGAUGCAAGGGAACAUGGGGUCAAAGGGGCCACCCACCACAUCUGAUGAUAUGUUAGUUUUGUUG: 0.95
CUGCCAUUACACGGUCUUGUGAUGUGACUAAAAGCCACUUUGUGACUCCCUUCAUGUAAUCCUCUUUUCCUCCCCACUCCUCCACAGAGGGCAGAGCUCAGGACAUUUGC: 0.441
UGUAAGUGGUGGAGAGUGCUGUCCUGUGUAGGCAGCUUCUGACUGCAGUUGAAAUGUAGUCCCCUAGAAUCCUAAAGGCUGUUAUUCUCAUCCUAGUUCCAGGUGUAACU: 0.31
AGGCAAGAGUACAGUAAGCCUAAGGGGACUUGCUGCUCAAACCAAAAAUUAACUCUGAAGGUCAGUCUACCUGACAUUACCUAGGCAUGGUGUUGUCCAAGCUGCGCAUC: 2.03
CUGAAAAGCAUGGUGCUGGUAACAGUUCAACAAUCCGUGGCUGCUCAUUCUUGCCGACUCCUCCCCCUCUGAAGCAGGUUAGCAUUGAAGGUGGUAUGGAAGCCUGCAUG: 2.03
UAAAGACAAGAGAAAGCCUACGUUUCAAUAUGUGAUGCUCAUGUGUGUUUGUAGUGUGAGCUCUUGUUUUUGAAAUGAUUGCUUCAGUCUUUGCCUUUGUUUGCACUGUG: 1.64
UAGAUAAAAUAAUCUUUAUUAUAAUGACCAGUUUUGUGCCACAUUGUUGGUGGCGAUCGACCAGAUGUGUUCGUCUGCACAGCCGCGAGGCAACACUGUUCCGUUUGCAC: 0.395
AGACAUUCUAUUUGAACACUUGCAAUUACCUAGAUCUAGUUGGCCUUUGGUUGAUAGAUCCUCUGCCUCGGAAUUUCAUUGAGUUUUUUUCUUCCUUGCCUUUGGGUGUC: 0.551
GGGGCUGGGGGGAUCCCAGCAGGGGGAGGGCAAUCCCUUCACCCCAGUUGCCAAACAGACCCCCCACCCCCUGGAUUUUCCUUCUCCCUCCAUCCCUUGACGGUUCUGGC: 0.21
GGGGCCGGCAGGCACAGGGAGGAGGUACAGAAGCCGGCAACGCUUGCUAUUUAUUUUACAAACUGGACUGGCUCAGGCAGGGCCACGGCUGGGCUCCAGCUGCCGGCCCA: 0.645
CCUCCAGAGGGUGCGCUCAGAGACACGGGCAAGCAUGCCUCUUCCCUUCCCUGGAGAGAAAGUGUGUGAUUUCUCUCCCACCUCCUUCCCCCCACCAGACCUUUGCUGGG: 1.66

Other studies, line by line
PhoQ, residues 284 288 289 292 302 303 NLCILV
fold induction (PhoP, residues 12 14 15 18 19 NQFFI (Escherichia coli, UniProt P23836); Sort-seq, item: YFP reporter; E. coli; PhoQ-PhoP variant library, together with: 10 µM Mg2+; reference: high Mg2+ state, higher = stronger signaling): 12.1

Some of these lines once more (set 2):
M13C: -0.0162
F9M: -0.0197
S10T: 0.53
A3K: -0.0833
K6A: 0.116
T12G: 0.579
F9T: -0.232
M13D: -0.106
